Results from different studies.
A part holds a random share of what one study measured. Changes are numbered by the printed parent chain.

Study 1
Target: Prothrombin, mature alpha-thrombin (F2, Homo sapiens, UniProt P00734)
Technique: aptamer microarray, sandwich
Molecule type: DNA with 2'F-ANA
Medium: in vitro
Concentration: 200 nM
Setting: whole 15-mer aptamer, many near background
With: Cy3 exosite-II aptamer, 400 nM
Reading: higher = stronger binding
`GGTTGGTGTGGTTGG (2'F-ANA at 2 3 4 8 9 10 11 13 14)`: “mean fluorescence intensity” 165 a.u.
For `GGTTGGTGTGGTTGG (2'F-ANA at 1 6 8 11 12 13 14 15)`, “mean fluorescence intensity” read 66.4 a.u.
`GGTTGGTGTGGTTGG (2'F-ANA at 6 8 12 15)`: “mean fluorescence intensity” 818 a.u.
`GGTTGGTGTGGTTGG (2'F-ANA at 3 4 8 10 11 12 14)` — result for “mean fluorescence intensity”: 209 a.u.

Study 2
Target: Histone acetyltransferase KAT6A, winged helix 2, GST fusion (KAT6A, Homo sapiens, UniProt Q92794, residues 85-181)
Technique: protein binding microarray
Molecule type: double-stranded DNA, one strand shown
Medium: in vitro
Concentration: not given
Setting: 8-mer, flanks averaged, mean of 2 arrays, mostly near background
Reference: not given
Reading: higher = stronger binding
Residues (chain): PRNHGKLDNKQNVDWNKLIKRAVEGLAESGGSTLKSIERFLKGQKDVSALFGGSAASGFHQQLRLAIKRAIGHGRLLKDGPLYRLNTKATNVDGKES
The E-score of `ATGAATGC` is reported as 0.0614.
`AATTATCT` gave an E-score of 0.00602.
`AATATCAC` has an E-score of 0.0265.
With `AAGACCTA` the E-score was 0.0374.

Further values, each from its own experiment
P1: ORC1 docking peptide (human); PRARKRLELGNLG; partner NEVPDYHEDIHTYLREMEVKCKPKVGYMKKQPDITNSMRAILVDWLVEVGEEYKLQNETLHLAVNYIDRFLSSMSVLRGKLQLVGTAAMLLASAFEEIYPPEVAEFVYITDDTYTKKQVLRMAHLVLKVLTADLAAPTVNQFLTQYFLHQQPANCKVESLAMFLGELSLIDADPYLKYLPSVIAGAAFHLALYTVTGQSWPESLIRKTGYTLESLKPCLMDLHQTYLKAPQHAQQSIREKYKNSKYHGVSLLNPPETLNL
P2: CDC6 docking peptide (human); TLKGRRLVFDNQL
`P1 R2E`: “normalised enrichment score” 3.35 (CCNA2, cyclin fold, Cln2 fusion (human); yeast growth competition, sequencing; yeast; strong parent motif; reference: not given, higher = stronger binding).
For `PhoQ, residues 284 288 289 292 302 303 ASTSDA`, the fold induction was 4.75 (PhoP, residues 12 14 15 18 19 GQAIL (Escherichia coli, UniProt P23836); Sort-seq, measured: YFP reporter; E. coli; PhoQ-PhoP variant library, with: 10 µM Mg2+; reference: high Mg2+ state, higher = stronger signaling).
`P2 F9Y`: “normalised enrichment score” 0.703 (CCNB1, cyclin fold, Cln2 fusion (human); yeast growth competition, sequencing; yeast; weak parent motif; reference: not given, higher = stronger binding).

For quick reference, copied from above (study 2):
`AATTATCT` gave an E-score of 0.00602.
